# Published values of several laboratories.
# Each line is one published result; not all experiments were run side by side. ± gives the spread as reported.
SMILES,assay,system,setting,quantity,value
N#Cc1cc(NC(=O)[C@H]2c3ccccc3C(=O)N(CC(F)(F)F)[C@@H]2c2cccnc2)ccc1F,,Beagle dog,"oral, 100 mg/kg, no methemoglobinemia",AUC,~95000 ng·h/mL
[Cl][212Pb][Cl],,"athymic mice, C4-2 xenograft, muscle","intravenous, 2 h, 212Pb-labelled",tissue uptake,0.17 ± 0.02 %ID/g
COc1ccc(F)cc1C(=O)NCc1ccc(-c2nn([C@@H](C)C(F)(F)F)c(N)c2C(N)=O)cc1,,"human, plasma","oral, 200 mg once daily, together with: oral midazolam",AUCtau,118 µg·h/mL
COc1cc2c(Oc3ccc4[nH]c(C)cc4c3F)ccnc2cc1OCC1(N)CC1,,"sarcoma, recurrent or refractory, high-risk, paediatric","concentration not given, grade 3, whole group",bone pain incidence,0%
C[C@@H](NC(=O)N1C(=O)[C@H](Cc2ccnc(N)c2)[C@H]1C(=O)O)C1CCCCC1,,healthy adult Chinese volunteers,"continuous intravenous infusion, 1.0 mg/kg/h, 5-day infusion, CTCAE 5.0 grading",incidence of moderate AEs,0%
Oc1ccc(CCc2cc(O)cc(O)c2)cc1,,"human, both sexes, plasma",mean,plasma concentration,1190 nM
CCN1CCN(Cc2ccc(Nc3ncc(F)c(-c4cc(F)c5nc6n(c5c4)[C@H](C)CCC6)n3)nc2)CC1,,advanced solid tumour patients,"dose not given, Phase Ia monotherapy","Vomiting incidence, any grade",41.7%
CC(C)CC(=O)OC[C@H]1O[C@@](C#N)(c2ccc3c(N)ncnn23)[C@H](O)[C@@H]1O,,rat plasma,0.9 to 90 µM,fraction bound,0.911
COc1ncccc1-c1cnn2ccc(N3CCN(C(=O)OC(C)C)CC3)nc12,,"rat, thermal hyperalgesia model, brain","oral, 3 mg/kg, 180 min",drug concentration,1010 nM
COc1ccc(-c2c(-c3ccc(C#N)c(F)c3)nc(N3CCC(N)CC3)n(C)c2=O)cc1F,refers to: Anemia,human patients,"oral, dose not given, grade 3 to 4, dose escalation, NG",treatment-related adverse event incidence,0%
COc1ccc2nc3cc(Cl)ccc3c(Nc3cc(CN4CCCC4)c(O)c(CN4CCCC4)c3)c2n1,,"mouse, blood","intraperitoneal, 57 mg/kg",monocyte count,0.22 10⁹/L
CCN1[C@@H](C(=O)NC23CCC(C(=O)O)(CC2)CC3)[C@H](c2cccc(Cl)c2F)[C@]2(C(=O)Nc3cc(Cl)ccc32)C12CCCCC2,,patients with advanced solid tumours,"oral, dose not given, all doses",Dizziness incidence,9.5%
NCCCC[C@@H]1NC(=O)[C@@H](Cc2c[nH]c3ccccc23)NC(=O)[C@H](c2ccccc2)NC(=O)[C@@H]2C[C@@H](OC(=O)NCCN)CN2C(=O)[C@H](Cc2ccccc2)NC(=O)[C@H](Cc2ccc(OCc3ccccc3)cc2)NC1=O,,healthy human volunteers,1950 µg twice daily,subjects with adverse event Nausea,89%
CO[C@H]1C[C@@H]2CC[C@@H](C)[C@@](O)(O2)C(=O)C(=O)N2CCCC[C@H]2C(=O)O[C@H]([C@H](C)C[C@@H]2CC[C@@H](OC(=O)NCCOCCOCCOCCOCCOCCOCCOCCOCCC(=O)N3CCc4cc(Cn5nc(-c6ccc7oc(N)nc7c6)c6c(N)ncnc65)ccc4C3)[C@H](OC)C2)C[C@@H](O)[C@H](C)/C=C(\C)[C@@H](O)[C@@H](OC)C(=O)[C@H](C)C[C@H](C)/C=C/C=C/C=C/1C,,patients with advanced solid tumours,"intravenous, 6 mg weekly, grade 3 or higher",AE leading to discontinuation,8.3%
